Assay results pooled from the literature.
Lines come from different studies, so protocols differ. Numbers after ± are the reported error.
BAZ2A eAT-hook: BAZ2A eAT-hook (Mus musculus, UniProt Q91YE5)
UniProt Q91YE5, sequence (whole entry, looked up): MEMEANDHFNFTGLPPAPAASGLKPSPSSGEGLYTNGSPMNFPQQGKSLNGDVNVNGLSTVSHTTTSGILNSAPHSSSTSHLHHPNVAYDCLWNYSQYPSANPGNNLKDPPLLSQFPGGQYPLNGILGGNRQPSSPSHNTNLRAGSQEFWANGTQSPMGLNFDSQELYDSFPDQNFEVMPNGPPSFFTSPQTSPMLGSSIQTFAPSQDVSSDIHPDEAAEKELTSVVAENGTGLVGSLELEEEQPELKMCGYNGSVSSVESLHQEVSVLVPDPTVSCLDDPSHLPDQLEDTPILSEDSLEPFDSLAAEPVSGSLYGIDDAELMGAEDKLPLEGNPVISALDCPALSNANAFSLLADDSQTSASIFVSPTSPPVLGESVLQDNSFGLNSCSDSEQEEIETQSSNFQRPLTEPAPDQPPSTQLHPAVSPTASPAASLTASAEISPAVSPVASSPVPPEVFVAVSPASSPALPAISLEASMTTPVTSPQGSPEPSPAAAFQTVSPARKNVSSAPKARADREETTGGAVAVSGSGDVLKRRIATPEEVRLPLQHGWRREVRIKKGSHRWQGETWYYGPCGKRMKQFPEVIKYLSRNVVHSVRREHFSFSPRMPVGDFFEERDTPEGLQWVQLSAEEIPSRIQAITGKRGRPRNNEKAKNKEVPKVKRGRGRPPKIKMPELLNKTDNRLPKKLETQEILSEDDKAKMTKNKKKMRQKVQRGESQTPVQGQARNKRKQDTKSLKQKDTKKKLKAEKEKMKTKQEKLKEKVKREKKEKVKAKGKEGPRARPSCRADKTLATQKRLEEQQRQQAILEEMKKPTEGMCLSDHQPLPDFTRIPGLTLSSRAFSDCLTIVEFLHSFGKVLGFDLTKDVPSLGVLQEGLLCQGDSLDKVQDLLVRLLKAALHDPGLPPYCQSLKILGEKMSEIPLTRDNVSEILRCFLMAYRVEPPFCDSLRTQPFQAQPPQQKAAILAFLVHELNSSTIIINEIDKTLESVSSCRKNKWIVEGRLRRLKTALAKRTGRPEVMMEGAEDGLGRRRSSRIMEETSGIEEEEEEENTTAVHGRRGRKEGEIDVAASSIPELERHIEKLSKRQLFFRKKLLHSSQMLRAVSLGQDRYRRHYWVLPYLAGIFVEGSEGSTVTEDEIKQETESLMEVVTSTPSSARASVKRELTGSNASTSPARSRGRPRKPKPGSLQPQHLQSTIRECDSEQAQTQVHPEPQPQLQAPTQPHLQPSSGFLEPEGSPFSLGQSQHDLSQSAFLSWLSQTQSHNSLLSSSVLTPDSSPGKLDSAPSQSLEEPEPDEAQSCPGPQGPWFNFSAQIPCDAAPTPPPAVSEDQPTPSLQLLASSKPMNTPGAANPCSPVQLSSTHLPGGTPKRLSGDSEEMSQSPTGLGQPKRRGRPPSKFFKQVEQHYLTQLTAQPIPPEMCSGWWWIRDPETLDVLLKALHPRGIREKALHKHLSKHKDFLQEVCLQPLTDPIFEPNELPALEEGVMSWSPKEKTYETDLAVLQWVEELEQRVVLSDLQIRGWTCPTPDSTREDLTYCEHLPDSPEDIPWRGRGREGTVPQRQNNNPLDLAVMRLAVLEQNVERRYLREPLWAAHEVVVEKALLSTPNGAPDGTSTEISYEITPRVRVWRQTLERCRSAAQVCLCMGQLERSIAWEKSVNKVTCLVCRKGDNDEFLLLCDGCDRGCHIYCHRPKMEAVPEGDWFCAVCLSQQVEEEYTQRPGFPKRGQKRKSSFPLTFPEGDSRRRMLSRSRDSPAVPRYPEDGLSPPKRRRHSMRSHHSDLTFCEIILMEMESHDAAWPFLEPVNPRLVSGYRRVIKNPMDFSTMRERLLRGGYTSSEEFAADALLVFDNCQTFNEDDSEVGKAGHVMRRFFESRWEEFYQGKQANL
sigA: sigA 1-371 (Bacillus subtilis, UniProt P06224)
UniProt P06224, sequence (whole entry, looked up): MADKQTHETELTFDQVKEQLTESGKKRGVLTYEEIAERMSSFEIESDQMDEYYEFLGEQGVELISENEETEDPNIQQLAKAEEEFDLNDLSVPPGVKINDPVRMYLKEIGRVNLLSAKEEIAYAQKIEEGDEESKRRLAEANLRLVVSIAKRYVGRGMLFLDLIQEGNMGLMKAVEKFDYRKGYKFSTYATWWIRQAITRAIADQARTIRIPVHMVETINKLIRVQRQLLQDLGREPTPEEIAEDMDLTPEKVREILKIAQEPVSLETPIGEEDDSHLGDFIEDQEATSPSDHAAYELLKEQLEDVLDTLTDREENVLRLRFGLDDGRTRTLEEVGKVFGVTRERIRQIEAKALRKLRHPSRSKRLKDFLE
B1: UGT1A9 (Homo sapiens, UniProt O60656); chain GKLLVVPMDGSHWFTMRSVVEKLILRGHEVVVVMPEVSWQLGRSLNCTVKTYSTSYTLEDLDREFKAFAHAQWKAQVRSIYSLLMGSYNDIFDLFFSNCRSLFKDKKLVEYLKESSFDAVFLDPFDNCGLIVAKYFSLPSVVFARGILCHYLEEGAQCPAPLSYVPRILLGFSDAMTFKERVRNHIMHLEEHLLCHRFFKNALEIASEILQTPVTEYDLYSHTSIWLLRTDFVLDYPKPVMPNMIFIGGINCHQGKPLPMEFEAYINASGEHGIVVFSLGSMVSEIPEKKAMAIADALGKIPQTVLWRYTGTRPSNLANNTILVKWLPQNDLLGHPMTRAFITHAGSHGVYESICNGVPMVMMPLFGDQMDNAKRMETKGAGVTLNVLEMTSEDLENALKAVINDKSYKENIMRLSSLHKDRPVEPLDLAVFWVEFVMRHKGAPHLRPAAHDLTWYQYHSLDVIGFLLAVVLTVAFITFKCCAYGYRKCLGKKGRVKKAHKSKTH
UniProt Q9LPI7, sequence (whole entry, looked up): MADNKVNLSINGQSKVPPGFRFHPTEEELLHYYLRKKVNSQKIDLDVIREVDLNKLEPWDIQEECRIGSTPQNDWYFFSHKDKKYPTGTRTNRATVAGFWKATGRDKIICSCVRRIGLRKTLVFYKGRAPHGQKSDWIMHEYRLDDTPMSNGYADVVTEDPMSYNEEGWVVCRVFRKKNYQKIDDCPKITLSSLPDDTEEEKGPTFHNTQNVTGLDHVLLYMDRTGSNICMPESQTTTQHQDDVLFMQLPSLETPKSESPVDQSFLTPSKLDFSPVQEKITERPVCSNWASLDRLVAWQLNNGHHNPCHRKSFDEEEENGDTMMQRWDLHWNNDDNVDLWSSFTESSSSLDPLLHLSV
UniProt Q04609, sequence (whole entry, looked up): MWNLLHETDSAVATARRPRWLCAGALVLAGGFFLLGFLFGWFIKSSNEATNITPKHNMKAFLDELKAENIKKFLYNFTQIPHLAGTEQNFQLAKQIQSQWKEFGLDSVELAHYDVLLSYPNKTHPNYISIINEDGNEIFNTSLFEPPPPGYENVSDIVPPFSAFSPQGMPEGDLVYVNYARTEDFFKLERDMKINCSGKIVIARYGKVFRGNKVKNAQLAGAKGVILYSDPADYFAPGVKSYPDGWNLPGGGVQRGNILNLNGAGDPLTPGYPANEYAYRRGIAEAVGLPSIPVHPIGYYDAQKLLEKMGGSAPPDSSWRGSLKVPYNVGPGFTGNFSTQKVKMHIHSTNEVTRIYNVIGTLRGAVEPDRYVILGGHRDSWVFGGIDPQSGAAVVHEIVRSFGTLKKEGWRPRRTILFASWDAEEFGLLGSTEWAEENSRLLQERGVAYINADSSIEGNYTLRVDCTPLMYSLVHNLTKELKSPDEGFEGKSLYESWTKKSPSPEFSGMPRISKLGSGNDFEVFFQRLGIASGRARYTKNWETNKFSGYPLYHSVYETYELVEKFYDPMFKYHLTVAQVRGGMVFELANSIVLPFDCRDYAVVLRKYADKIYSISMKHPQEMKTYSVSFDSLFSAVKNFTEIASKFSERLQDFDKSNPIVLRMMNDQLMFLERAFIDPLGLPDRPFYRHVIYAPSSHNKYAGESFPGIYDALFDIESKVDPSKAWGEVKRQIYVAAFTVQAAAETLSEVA
UniProt P19525, sequence (whole entry, looked up): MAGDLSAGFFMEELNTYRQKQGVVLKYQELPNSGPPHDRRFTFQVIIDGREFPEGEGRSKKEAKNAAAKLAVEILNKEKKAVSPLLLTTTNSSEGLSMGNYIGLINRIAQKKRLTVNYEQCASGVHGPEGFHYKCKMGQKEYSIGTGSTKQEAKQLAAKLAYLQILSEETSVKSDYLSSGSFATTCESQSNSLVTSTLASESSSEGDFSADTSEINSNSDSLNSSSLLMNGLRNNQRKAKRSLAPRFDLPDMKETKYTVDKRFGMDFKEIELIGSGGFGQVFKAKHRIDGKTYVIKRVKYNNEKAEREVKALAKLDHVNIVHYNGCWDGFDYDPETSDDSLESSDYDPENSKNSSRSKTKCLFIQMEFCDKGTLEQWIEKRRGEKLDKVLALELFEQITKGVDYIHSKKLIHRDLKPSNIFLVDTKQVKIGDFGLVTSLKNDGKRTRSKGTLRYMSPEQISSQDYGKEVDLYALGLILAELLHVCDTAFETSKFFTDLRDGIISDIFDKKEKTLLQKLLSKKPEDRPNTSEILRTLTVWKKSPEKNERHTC
UniProt P19466, sequence (whole entry, unmodified, looked up): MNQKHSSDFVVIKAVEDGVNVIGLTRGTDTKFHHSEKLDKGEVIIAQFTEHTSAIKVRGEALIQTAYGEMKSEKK
UniProt Q15717, sequence (whole entry, looked up): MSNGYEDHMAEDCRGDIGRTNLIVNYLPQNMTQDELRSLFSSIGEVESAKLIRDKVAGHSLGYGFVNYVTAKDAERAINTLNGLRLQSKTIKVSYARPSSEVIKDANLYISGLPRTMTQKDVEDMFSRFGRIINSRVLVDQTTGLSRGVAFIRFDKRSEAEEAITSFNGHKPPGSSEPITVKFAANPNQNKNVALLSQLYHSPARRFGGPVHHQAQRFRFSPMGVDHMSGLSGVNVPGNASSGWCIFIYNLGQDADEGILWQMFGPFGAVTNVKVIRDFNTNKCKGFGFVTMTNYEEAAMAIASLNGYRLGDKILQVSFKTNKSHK

| Molecule | target or system | assay | test system | setting | scale | measurement | result |
| --- | --- | --- | --- | --- | --- | --- | --- |
| AGUUCCAUGAUGUUUUCAAACUCUAUUACCUACAUUAUUUGAAC (structured RNA; hairpin, large stem-loop) | BAZ2A eAT-hook | MST | – | 50 nM RNA | – | K1/2 | 0.187 ± 0.01 µM |
| B1 (UGT1A9) | Oc1ccc(I)cc1 | steady-state kinetics | – | pH 7.4, 37 °C | – | Vmax/Km | 148 µL/min/mg |
| CTATTTCTCCTGGTAAGGAATCATCTGGTACATTTACATCATTACCACATATTGGACATTTTAATAGTACCATGATGGATCGAATAGAAATATAAAGTAAGCAGTTGAAAAGCTTTTATGAAATAAAAGGTTCGAAATTAGTACCAAACTCTAAGCACTATAGTACTGTTTGTACTTATAACGCCCTG (dsDNA) | lysM 1-140 (Sulfolobus acidocaldarius, UniProt Q4JAQ1) | Cu-OP in-gel footprinting | double-stranded DNA, one strand shown | – | – | binding | binds |
| GGGAAGUCUAAUGAUCAUAUUUAUUUAUUUAUAUGAACCAUGUCUAUUAAUUUAAUUAUUUAAUAAUAUUUAUAUUAAACUCCUUAUGUUACUUAACAUCUUCUGUAACAGAAGUCAGUACUCCUGUUGCGGAGAAAGGAGUCAUACUUGUGAUCUAGACU (ssRNA) | ELAVL1 full length assumed (Homo sapiens, UniProt Q15717) | EMSA | – | 200 nM | – | binding | binds |
| TGTGAATAATGAGACAAGACTTATTATATCAGCCTTGATTTGCAGTGTCAAGAGGTAAATGTTTTTATTTATCTCTCGTGACGACTTTTATAATG (dsDNA) | sigA | EMSA | double-stranded DNA, one strand shown | – | – | binding | binds |
| GAGUUGAGUUGAGUUGAGUUGAGUUGAGUUGAGUUGAGUUGAGUUGAGUUGAGUU (ssRNA; single strand) | mtrB full length assumed T30V/D39V (Bacillus subtilis, UniProt P19466) | filter binding | – | together with: L-tryptophan 1 mM | – | Kd | 126 ± 6 nM |
| GGGAGGACAAAGAAAUACAGAUAUAUCUUAAAAAAAAAAAAGCAUUUUGUAUUAAAGAAUUUAAUUCUGAUCU (ssRNA) | SOD1 fragment G94A (Homo sapiens) | EMSA | – | metallated | – | binding | binds |
| GTGTCATAAGAAAGCTTCAAGAGACAGCAACAAGATTTGGTGGAAGAAGGAGACAGCTCAGTGTAGTTAGTGTTTTTATATAATTTAATTGCTTGAGCTTCCAACTTCTACTGTTTGTTATTCTTTTGAGTTCTTTAGAATTTGTATAACTTAGAGTAGCTTTCAAGTTATTATGTATTTCTACTTTAGTCTTACTTAATATTTTGTATCTTATAAACTTTACCAAATCTGG (dsDNA (Arabidopsis thaliana)) | NAC012 full length assumed (Arabidopsis thaliana, UniProt Q9LPI7) | EMSA | double-stranded DNA, one strand shown | – | – | binding | binds |
| GGGAGGACGAUGCGGAUCAGCCAUGUUUACGUCACUCCU (RNA aptamer; 2'-F pyrimidines, 3' amine) | FOLH1 1-750 (Homo sapiens, UniProt Q04609) | flow cytometry | LNCaP | no ultrasound, not purified | reference: NBs without aptamer, higher = more binding | relative binding | 40.6 ± 3.52% |
| GCCTGTTGTGAGCCTCCTAACCGTGCGTATTCGTACTGGAACTGATATCGATGTCCCCATGCTTATTCTTGTCTCCC (ssDNA; three predicted stem loops) | ITGA6/ITGB4 (Homo sapiens) | cell adhesion inhibition, competition | PC-3 | apparent, not purified | – | Ki | 123 ± 44 nM |
| GGGAGAGGCAAGUCGUUCGGUCGCGUUCGCUGUCGUCGCGUCUUGUAUGCCACUGUACCC / GGGTACAGTGGCATACAAGACGCGACGACAGCGAACGCGACCGAACGACTTGCCTCTCCC (chimeric DNA/RNA duplex; blunt, strand 2 RNA 23-38) | EIF2AK2 1-184 (Homo sapiens, UniProt P19525) | ITC | – | 20 °C, weak sites, two-site fit | – | Kd | 3500 ± 500 nM |
| TPDYLMQAMNDKKLMSSLPNFSGIFNHLERLLDEEISRVRKDMYNDTLNGSTEK (Qki 14-67 C35S/L21A (Mus musculus, UniProt Q9QYS9)) | itself | CD thermal melting | – | 50 µM | – | melting temperature | < 15 °C |
| GGGAGACCUAGCCUCAUAUAAUCGUUGUCCAGAAUUGUAUAUAUUCGUAGCAUAAGUUUUCCAAACAUUAUUUUGUUGUCGAAAAUUGUACAUAAGCCAAUUAAGCCGCUAAUUCU (ssRNA) | brat 756-1037 R875A (Drosophila melanogaster, UniProt Q8MQJ9) | EMSA | – | – | – | binding | no binding |
| TCTTTTTTTTTTTTTTTCTTTTTTCCTCC (dsDNA) | BAZ2A eAT-hook | MST | double-stranded DNA, one strand shown | 50 nM DNA | – | K1/2 | 10 ± 0.8 µM |
| TGTGAATAATGAGACAAGACTTATTATATCAGCCTTGATTTGCAGTGTTCCGAGGTAAATGTTTTTATTTATCTCTCGTGACGACTTTTATAATG (dsDNA) | sigA | competition with labeled DNA, competition EMSA | double-stranded DNA, one strand shown | – | – | binding | binds |

A few entries again:
| Molecule | target or system | assay | test system | setting | scale | measurement | result |
| --- | --- | --- | --- | --- | --- | --- | --- |
| CTATTTCTCCTGGTAAGGAATCATCTGGTACATTTACATCATTACCACATATTGGACATTTTAATAGTACCATGATGGATCGAATAGAAATATAAAGTAAGCAGTTGAAAAGCTTTTATGAAATAAAAGGTTCGAAATTAGTACCAAACTCTAAGCACTATAGTACTGTTTGTACTTATAACGCCCTG (dsDNA) | lysM 1-140 (Sulfolobus acidocaldarius, UniProt Q4JAQ1) | Cu-OP in-gel footprinting | double-stranded DNA, one strand shown | – | – | binding | binds |
